Results collected from several papers.
Parts stem from different laboratories: compare values within a part only. Positions count from the first letter of the parent shown.

Set 1
Target: Ras GTPase-activating protein-binding protein 1, RRM domain (G3BP1, Homo sapiens, UniProt Q13283)
Chain of UniProt Q13283 (whole entry, looked up): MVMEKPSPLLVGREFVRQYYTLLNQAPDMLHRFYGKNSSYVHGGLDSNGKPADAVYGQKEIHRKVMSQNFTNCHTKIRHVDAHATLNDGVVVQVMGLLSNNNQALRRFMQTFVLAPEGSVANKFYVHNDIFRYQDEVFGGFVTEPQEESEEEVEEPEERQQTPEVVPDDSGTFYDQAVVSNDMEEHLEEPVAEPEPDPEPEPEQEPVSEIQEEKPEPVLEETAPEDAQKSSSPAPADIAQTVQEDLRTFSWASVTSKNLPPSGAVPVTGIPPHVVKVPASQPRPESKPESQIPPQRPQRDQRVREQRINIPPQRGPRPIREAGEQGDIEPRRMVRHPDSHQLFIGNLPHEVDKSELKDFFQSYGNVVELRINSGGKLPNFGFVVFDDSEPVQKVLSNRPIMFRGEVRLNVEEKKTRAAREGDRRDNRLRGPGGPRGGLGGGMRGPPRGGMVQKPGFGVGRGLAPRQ
Method: RNA Bind-n-Seq
Molecule type: RNA
Matrix: in vitro
Concentration: 1 µM
Setting: whole 134-nt RNA, ends assumed
Together with: 150 mM KCl
Baseline: input library
Direction: higher = stronger binding
Measurement: log2 enrichment
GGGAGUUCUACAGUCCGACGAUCGUGCUACACAUCGUAUGUACCGAAUCGGGGUUUUUUUGGGGAAAAAAAGGGGAAAAAAAGGGGAAAGUAUUAUGUUACGCCGUUCGGAUCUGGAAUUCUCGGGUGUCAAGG: 0.838
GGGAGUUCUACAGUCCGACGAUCCUCAAGUCCUGUGCUACACAUCGUAUGUACCGAAUCGGUGGGGUGGGGUGGGGAAAGUAUUAUGUUACGCCGUUCGGAUCUGCACUUCCAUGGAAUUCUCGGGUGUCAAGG: 0.313
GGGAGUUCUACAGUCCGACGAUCUGGGAGGUGCAUUUUGUUUAUUUUUUUAGCUCAUUUCCAGGGGUGGGAAUUUUUUUUUAAUAUGUGUCAUGAAUAAAGUUGUUUUUGAAAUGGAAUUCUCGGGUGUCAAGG: 1.4
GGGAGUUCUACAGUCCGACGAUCUCCUCAAGUCCUGUGCUACACAUCGUAUGUACCGAAUCGGAGGGAGGGAGGAAAGUAUUAUGUUACGCCGUUCGGAUCUGCACUUCCAGCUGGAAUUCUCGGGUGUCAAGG: -0.256
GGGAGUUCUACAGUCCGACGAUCGUCCUGUGCUACACAUCGUAUGUACCGAAUCGGGCCCCCGGGGCCCCCGGGCCCCCGGGAAAGUAUUAUGUUACGCCGUUCGGAUCUGCAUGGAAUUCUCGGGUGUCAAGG: -0.627
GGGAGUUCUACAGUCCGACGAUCUCCUGUGCUACACAUCGUAUGUACCGAAUCGGGUUUUUUGGGUUUUUUGGUUUUUUGGGAAAGUAUUAUGUUACGCCGUUCGGAUCUGCAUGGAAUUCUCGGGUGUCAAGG: -0.0653
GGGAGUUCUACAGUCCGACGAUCCAAGCCAAGGAAAUGGUGUUAGAGUUAAUUCGUGAUCAAGGCGGUUUCAGAGAAGUUCGGAAUGAGUAUGGGUCAAGAAUAGGAGGAAAUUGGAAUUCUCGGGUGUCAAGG: -0.175
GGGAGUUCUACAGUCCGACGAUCUCAAGUCCUGUGCUACACAUCGUAUGUACCGAAUCGGUUUUUUUGGAAAGGAGGAAAGUAUUAUGUUACGCCGUUCGGAUCUGCACUUCCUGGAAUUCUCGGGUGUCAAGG: -0.116
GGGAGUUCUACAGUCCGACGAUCACCAUGCAGGUGGGCAUCUUUGGGAAGAAAGGCAAGGGGGGGAUAGGGAGGGGGGUAACACUUUGGGAACAGGUGGUCCCAGGUCGUUUCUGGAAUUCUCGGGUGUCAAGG: -0.356

Set 2
Target: Centromere-binding protein 1, full length, His-tagged (CBF1, Saccharomyces cerevisiae, UniProt P17106, residues 1-351)
Chain of UniProt P17106 (whole entry, looked up): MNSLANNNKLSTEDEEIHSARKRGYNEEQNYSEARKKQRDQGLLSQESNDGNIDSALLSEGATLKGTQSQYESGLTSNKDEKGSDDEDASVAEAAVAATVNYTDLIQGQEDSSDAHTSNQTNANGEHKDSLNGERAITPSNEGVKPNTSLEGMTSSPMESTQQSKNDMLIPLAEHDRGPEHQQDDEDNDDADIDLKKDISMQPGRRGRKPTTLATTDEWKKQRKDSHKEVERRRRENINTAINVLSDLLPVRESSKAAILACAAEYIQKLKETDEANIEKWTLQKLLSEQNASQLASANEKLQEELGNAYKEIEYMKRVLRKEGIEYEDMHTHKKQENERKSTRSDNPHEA
Method: competition protein-binding microarray
Molecule type: double-stranded DNA, one strand shown
Matrix: in vitro
Concentration: 2 µM
Setting: whole 60-bp probe, lowest competitor level
Together with: Pho4 competitor, 0.05 µM
Direction: higher = stronger binding
Measurement: fluorescence intensity
TGTAGTTAAACAGTCCACGTGTATTTGACTGCAGTAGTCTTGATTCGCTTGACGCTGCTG: 1100 a.u.
CTGGTACTGAAGAATCACATGTGTGGAACGGTATAGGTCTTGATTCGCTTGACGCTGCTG: 516 a.u.
AAAAACATTTCCTGTCACATGTTAGTAAAACAGAAAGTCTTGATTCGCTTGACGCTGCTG: 2700 a.u.
GTCTTGTCTCATTGTCCAGTGGGTGTCCCCACTTCAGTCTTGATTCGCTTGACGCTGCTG: 84.4 a.u.
CCTCTTTACATTTGGCATGCGTTGACACTATAGATTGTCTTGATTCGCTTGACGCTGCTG: 94.3 a.u.
ACTTTCTTTCTGTTCCACGTGGGTACACCACTTCAAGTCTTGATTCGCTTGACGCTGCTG: 817 a.u.
CGGGGTTAAGTTTTTCACGTGTCTTGCTTGCAGCAGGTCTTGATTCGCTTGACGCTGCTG: 659 a.u.
AAAGCGGTAATTTTTCACGTGCCATCACATATCTATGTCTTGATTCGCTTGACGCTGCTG: 1350 a.u.
CACAGACCTTACTTCCACGTTAGTGTCATCGAAGATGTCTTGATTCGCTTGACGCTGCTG: 80.2 a.u.
CGTCCTAGTGATTTTCACGTGGTGTCCATGAGGAAGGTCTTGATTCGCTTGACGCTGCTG: 905 a.u.
TCCCAGTAGATATCGCACGCAAAACTCAAAAGATGGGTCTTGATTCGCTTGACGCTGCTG: 64 a.u.
CTGAAAGAGAAATTGTCCGTGACGAAAAGGAAAAAGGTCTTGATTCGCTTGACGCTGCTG: 96.6 a.u.
TTGCGAAAGCCGCAGAACGTGATGGATAAACATCAAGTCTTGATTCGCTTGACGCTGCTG: 339 a.u.
CTTCTGTAAATTTGAGTTGTGGGTGGACGCGCCCCGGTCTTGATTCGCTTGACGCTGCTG: 81.1 a.u.
CTTGCAGCTTTTTCTTTAAGGTAAAAATCATTTTGGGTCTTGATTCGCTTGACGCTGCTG: 70.3 a.u.
ACAAAAGAACATCGGCACGCAATGTTGCTTTGACAAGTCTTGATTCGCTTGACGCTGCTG: 60.5 a.u.
CTTCTGTAAATTTGTAAGGTGGGTGGACGCGCCCCGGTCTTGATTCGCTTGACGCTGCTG: 83.1 a.u.
CGGGGTTAAGTTTGGATAGTGGGTGGCTTGCAGCAGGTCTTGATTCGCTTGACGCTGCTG: 67.1 a.u.
TGGGTTTCTGTGAACACCGTGCCAGACACCATTGACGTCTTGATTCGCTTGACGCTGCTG: 76.7 a.u.
ATACTTGAAACATTTCACGTTCCCGAAGACGTAGACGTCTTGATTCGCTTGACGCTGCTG: 94.9 a.u.
AAAGCGGTAATTTGACATGTGGGTGCAGATATCTATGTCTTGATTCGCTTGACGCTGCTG: 101 a.u.
CATACCCAACCTTGACACGTGGGTGAAGATATTTGTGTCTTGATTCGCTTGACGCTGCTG: 844 a.u.
ACCTTGGCGCATTATCATGTTTGTGATGTCATCCAGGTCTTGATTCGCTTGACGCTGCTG: 88.3 a.u.
TTTCCAGGCCCAGCGAGCGTGCTTTGCAAGAGGATCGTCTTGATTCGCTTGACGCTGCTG: 67.4 a.u.
CGGGGTTAAGTTTTTCACGTGATATGCTTGCAGCAGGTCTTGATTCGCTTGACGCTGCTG: 4510 a.u.

Set 3
Target: RNA binding protein fox-1 homolog 2, RRM domain, GST-SBP tag (RBFOX2, Homo sapiens, UniProt O43251-10, residues 100-194)
Method: RNA Bind-n-Seq
Molecule type: RNA
Matrix: in vitro
Concentration: 365 nM
Setting: natural RNA segment, single round, ends assumed
Baseline: no-protein control
Direction: higher = stronger binding
Measurement: RBNS enrichment (R)
Target sequence (chain): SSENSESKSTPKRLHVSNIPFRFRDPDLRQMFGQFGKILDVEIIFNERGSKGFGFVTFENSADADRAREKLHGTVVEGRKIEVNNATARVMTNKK
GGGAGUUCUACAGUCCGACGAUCCCCAUGCCUGUAAUCCCAGCACUUUGGGGGGCCAAGGCAGGCUGGAUCACCUGAGGACAGGAGUUCGAGACCAGUCUGGCCAACAUGGGGAAACCCCGUCUCUACUAAAAUGGAAUUCUCGGGUGCCAA: 0.568
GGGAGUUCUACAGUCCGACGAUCUGCUCUCCCUGCUGAUGAUAAAGUAAUCUCUGGAGUCACACCUGGGCCAUGUGAUUGUUUUAUUUUGGAAUUGGUGUAUAUCAUGAAGCCUUGCUGAACUAAGUUUUGUGUGGAAUUCUCGGGUGCCAA: 0.448
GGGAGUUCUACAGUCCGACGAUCUGUUUUCCCUUUGGUCCCAGGCCCUGGGGGAAAGGAAGGAAGUGCAUGCUUGGGGACUGGUCCCACUGGAUCUCUAUCCUAACGUCCAUGGCCGUCAGCACCCCUCCUUUUGGAAUUCUCGGGUGCCAA: 12.7
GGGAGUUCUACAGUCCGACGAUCUCCCAGUGACACCACCCCCUGCCUCUGGUUACUAUAAGAUGAGCCUUUAAGAUUCUUUCUAGACUUAAAUUUUGUGCCAUGGCCCACUGGAUGUAGAUAUUCUACAAGGAUGGAAUUCUCGGGUGCCAA: 0.236
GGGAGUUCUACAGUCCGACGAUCUUAGGAGAAGUCUUUGUAGUCUCUUUAUGUUCAUAAUGAAUACUGUAUCAAUAUUUCCUAACAUGAAGCAGUCAAACAUGUAUGGCACAUACUGACCAGACGUCAGUCUGUGGAAUUCUCGGGUGCCAA: 0.316
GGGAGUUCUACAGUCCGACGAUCCACAGAACUUGAAUACAUGAGGGAACCAGAGUUCAAAGUCCUAUGCAACCUUAGGAGGGGGUUAGAGAGUCUGUUUUGAUUGAUGUUUUCUGAGGCCCUAGAGGAGUUUGUGGAAUUCUCGGGUGCCAA: 2.75
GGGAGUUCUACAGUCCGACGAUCCUACUGCUUCUGCUUCUUCUUCUCUGGACUGGUGGUAUAGAUAUAGCCACCCUUUGCCCAAACCCUGGUAGCUCGGGGAAGCUUGGCUUAAGGCUGCACGCCUCCAAUCCUGGAAUUCUCGGGUGCCAA: 0.284
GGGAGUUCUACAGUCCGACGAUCAGCAGGGAUGUGGCAGAGAGAUCUGUGUGGAUCUGGCUUCCUGCUGCUGGGGCCUGGCUGGGCCCAAAGCUCCAAGCCUCACUGCCUUCCUGGGGUCCUAAUUAACUCGGUGGAAUUCUCGGGUGCCAA: 0.294
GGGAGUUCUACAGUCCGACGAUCGCCUUAUUGAAUAGGUCACUAUUAAAUUCCUUUAAAUGUUGAUAUCUGCCAUUUGUGGAAACAACGUAAAUUCUACUUAAGUGUAAACAAGGCAAGCCUCAGACCAGCAAUGGAAUUCUCGGGUGCCAA: 0.314
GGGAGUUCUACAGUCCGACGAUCUUAGUUUUGAUGCUUUUCAAAUUACAUUAUUUUCCUCCCCUAUGAACAUUGUGGGGAGGGACUCUAAAUAAACCAGUUUAGGCAUUUGCUAGCUUUAGGUGCUUUUAUUGUGGAAUUCUCGGGUGCCAA: 0.608
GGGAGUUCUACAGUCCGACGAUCACCCUGUGCUCCUCUGGCCAGCUCUGGAGGAAUCCUCAUCCAUCAUUACCACACCCUUCCCAGGGACCAGCACCUUUAAGCACUCCAGGGCCUUGAGGGAAUAAGGGGCCUGGAAUUCUCGGGUGCCAA: 0.502
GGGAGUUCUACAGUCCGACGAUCACUGUUUGGACCUCAGGACCUUUUCCCCUCUGGGACACUGCAUGCCGUGGAAAACCUUUUCAGAAACUACAUUCAUUGUUCUUUAAGCAGACCAAAAGUCACAACAGUGGUGGAAUUCUCGGGUGCCAA: 2.45

Set 4
Target: CCND3, cyclin fold, Cln2 fusion (human)
Method: yeast growth competition, sequencing
Matrix: yeast
Setting: strong parent motif
Baseline: not given
Direction: higher = stronger binding
Measurement: normalised enrichment score
Starting sequence: INSM1 docking peptide (human); PKAIRKLHFEDEV; partner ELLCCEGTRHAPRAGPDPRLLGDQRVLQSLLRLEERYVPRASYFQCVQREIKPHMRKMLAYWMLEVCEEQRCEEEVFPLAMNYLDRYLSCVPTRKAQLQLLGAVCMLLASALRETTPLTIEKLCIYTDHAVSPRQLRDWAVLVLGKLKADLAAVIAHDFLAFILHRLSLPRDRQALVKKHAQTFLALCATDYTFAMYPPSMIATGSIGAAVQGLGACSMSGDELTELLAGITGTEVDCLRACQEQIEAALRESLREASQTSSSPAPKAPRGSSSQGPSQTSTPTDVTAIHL
A3W: -0.588
K6E: 0.624
E10M: 0.733
F9G: 0.415
K6L: 0.12
I4T: 0.371
A3K: 0.573
A3I: -0.154
F9P: 0.0492
E12Y: 0.724
E10I: 0.301
H8I: 1.88
R5W: 0.422
K2Y: 0.664

Some of these lines once more (set 4):
K6L: 0.12
A3I: -0.154
F9G: 0.415
E10M: 0.733
A3K: 0.573
H8I: 1.88
